Results of several laboratories.
Protocols differ between the studies behind these lines. Several values in a cell are separate wells, animals, samples, runs or records. Numbers after ± are the reported error.

SMILES	tested on	assay	system	setting	how to read	quantity	value
CC[C@H](C)[C@@H]1NC(=O)[C@@H](NC(=O)[C@H](CCCNC(=N)N)NC(=O)[C@H](CCCCN)NC(=O)[C@H](Cc2c[nH]c3ccccc23)NC(C)=O)CSC=CCCC[C@@H](C(=O)N[C@@H](CC(C)C)C(=O)N[C@@H](CC(C)C)C(=O)N[C@@H](CCC(N)=O)C(=O)N[C@@H](CCC(=O)O)C(N)=O)NC(=O)[C@H](CCCNC(=N)N)NC(=O)[C@H](CC(C)C)NC1=O	–	circular dichroism	10 mM phosphate buffer	pH 7.4, 20 °C	–	helicity	30%
C=CC[C@@H]1/C=C(\C)C[C@H](C)C[C@H](OC)[C@H]2O[C@@](O)(C(=O)C(=O)N3CCCC[C@H]3C(=O)O[C@H](/C(C)=C/[C@@H]3CC[C@@H](O)[C@H](OC)C3)[C@H](C)[C@@H](O)CC1=O)[C@H](C)C[C@@H]2OC	–	–	kidney transplant recipients, whole blood	oral, dose not given, all patients, limited sampling	–	dose-normalized AUC(0-12h)	137 ng·h/mL
CC(C)C[C@H](NC(=O)[C@@H](CCCCNC(=O)[C@@H](Cc1ccccc1)NC(=O)CCCCCNC(=O)CN1CCN(CC(=O)O)CCN(CC(=O)O)CCN(CC(=O)O)CC1)NC(=O)[C@H](Cc1ccc(O)cc1)NC(=O)[C@H](CO)NC(=O)[C@H](Cc1c[nH]c2ccccc12)NC(=O)[C@H](Cc1c[nH]cn1)NC(=O)[C@@H]1CCC(=O)N1)C(=O)N[C@@H](CCCNC(=N)N)C(=O)N1CCC[C@H]1C(=O)NCC(N)=O [indium-111 labelled]	–	–	female athymic nude mice, blood	intravenous, 0.037 MBq, 2 h	–	tissue uptake	0.06 ± 0.02 %ID/g
C=C(NC(=O)c1csc(-c2nc3c(cc2O)-c2nc(cs2)C(=O)NC(C(C)O)C(=O)NC(=C(C)OC)c2nc(cs2)C(=O)NC2c4nc(cs4)C(=O)NC(COC(=O)c4c5c6c(cccc6n4O)COC(=O)C(OC4CC(C)(O)C(N(C)C)C(C)O4)C2OC5)c2nc-3cs2)n1)C(N)=O (stereo not drawn)	–	–	cynomolgus monkey, female, plasma	intravenous infusion, 1.5 mg/kg twice daily, 0 to 30 h	–	half-life	5.34 h
COc1ccc2c(c1)CN(C(=O)CCN1CCC(Cc3ccccc3)CC1)CCS2	–	–	paroxysmal AF patients	oral, 540 mg, 24 h	reference: baseline	QTcF change	35.8 ms
CN1CCCNC(=O)c2cccc(c2)C(=O)NCCCN(C)CCCNc2cccc3c2C(=O)c2cccc(c2C3=O)NCCC1	SAS	RNA-Seq, refers to: HNRNPA2B1 mRNA	–	1 µM, 6 h	reference: untreated cells	log2 fold change	0.299
C=CC(=O)Nc1cc(Nc2nccc(-c3cn(C)c4ccccc34)n2)c(OC)cc1N(C)CCNC	–	storage stability	human dried blood spots	72 h, -80 °C, low QC level	–	recovery	90.3%
C=CCCC[C@](C)(NC(=O)[C@H](Cc1c[nH]c2ccccc12)NC(=O)[C@H](Cc1ccc(O)cc1)NC(=O)[C@H](CCC(=O)O)NC(=O)[C@](C)(CCCC=C)NC(=O)[C@H](Cc1ccccc1)NC(=O)[C@@H](NC(=O)[C@H](CC(C)C)NC(C)=O)[C@@H](C)O)C(=O)N[C@@H](CCC(N)=O)C(=O)N[C@@H](CC(C)C)C(=O)N[C@H](C(=O)N[C@@H](CO)C(N)=O)[C@@H](C)O	–	circular dichroism	10 mM phosphate buffer	50 µM, pH 7.4	–	helicity	40%
N#Cc1cccc(-c2ccc3ncc(-c4cc(F)cc(F)c4)c(N4CCC(NC(=O)OC5OC(C(=O)O)C(O)C(O)C5O)CC4)c3c2)c1O (stereo not drawn)	–	–	human, urine and faeces	oral, 20 mg, with: 14C-labelled drug	reference: dose	excreted radioactivity	2.7%
Cc1ncsc1-c1ccc(C(C)NC(=O)C2CC(O)CN2C(=O)C(NC(=O)CCCCCCCCCCN2CCCC(Nc3ncc(Cl)c(Nc4ccccc4S(=O)(=O)C(C)C)n3)C2)C(C)(C)C)cc1 (stereo not drawn)	22Rv1	RNA-seq, refers to: PROSER3 mRNA	–	concentration not given	reference: DMSO	log2 fold change	-1.93
CC[C@H](C)[C@H](NC(=O)[C@H](N)Cc1ccc(O)cc1)C(=O)N[C@H]1CSSC[C@@H](C(=O)N(C)[C@H](C(=O)N[C@@H](CCCCN)C(=O)N[C@@H](CCCCN)C(=O)N[C@@H](CCCCN)C(N)=O)[C@@H](C)CC)NC(=O)[C@H](CCCNC(=N)N)NC(=O)[C@H](Cc2c[nH]cn2)NC(=O)[C@H](C)NC(=O)CN(C)C(=O)[C@H](Cc2c[nH]c3ccccc23)NC(=O)[C@H](CC(=O)O)NC(=O)[C@H](CCC(N)=O)NC(=O)[C@H](Cc2cn(C)c3ccccc23)NC(=O)[C@H](C(C)C)NC1=O	–	–	cynomolgus monkey, vitreous	intravitreal, dose not given, C3-saturating levels	–	intraocular residence	> 3 months
CC1Cc2ccccc2N1C(=O)CN1CCN(Cc2ccccc2)CC1 (stereo not drawn)	–	–	female NMRI mice, brain	intraperitoneal, 10 mg/kg free base, 60 min	–	concentration	699 ng/mL and 735 ng/mL
COC1CN([C@H]2CC[C@H]([C@@]3(C)Oc4c(Cl)cc(C(=O)NCc5c(SC)cc(C)[nH]c5=O)c(C)c4O3)CC2)C1	–	RNA-seq, refers to: RUNX1T1	human, whole blood	dose not given, 24 h	reference: pretreatment baseline	log2 fold change	5.67
O=C1NC2(CC2)COc2ncc(F)cc2[C@H]2COCCN2c2ccn3ncc1c3n2	CHL cells	chromosomal aberration test	–	20 µg/mL, 24 h, without S9 mix	–	cells with structural aberrations	1%
CCCC[C@H](OC(C)=O)c1ccccc1C(=O)O	–	–	beagle dog, both sexes, whole blood	intravenous, 5 mg/kg, single dose, fitted within 1 h	–	half-life	0.28 ± 0.03 h
COc1cccc(OC)c1-c1cc(C(=O)NC2(C(=O)O)C3CC4CC(C3)CC2C4)nn1-c1ccc(C(=O)N(C)CCOCCOCCN(C)C(=O)[C@H](CCCCNC(=O)[C@H](CC(C)C)NC(=O)C2OC2C(=O)O)NC(=O)CN2CCN(CC(=O)[O-])CCN(CC(=O)[O-])CCN(CC(=O)[O-])CC2)cc1C(C)C.[177Lu+3] (mixture of isomers)	–	–	mouse HT-29 xenograft	4 h, biodistribution	reference: tumour over large intestine	tumour-to-large intestine ratio	3.99
O=C(Nc1cnccc1-c1ccc([18F])cc1)c1ccnc(NC(=O)C2CC2)c1	–	–	FVB/NJ mouse, both sexes, brain	intravenous, 30 min	–	SUV	0.19
O=C1C2CC3CC1CC(C(=O)N1CCN(c4ccc([N+](=O)[O-])c5ncccc45)CC1)(C3)C2	Salmonella typhimurium	Ames test	TA98	0.02 µg/well, without S9	–	mean revertant colonies	6 colonies/well
